Measured values from different studies.
Every numbered part comes from another study and shows a few of its results, in no order. Positions count from the first letter of the parent shown.

Sample 1
Target: CCND2, cyclin fold, Cln2 fusion (human)
Method: yeast growth competition, sequencing
Sample: yeast
Notes: strong parent motif
Relative to: not given
Direction: higher = stronger binding
Parent: PKN2 docking peptide (human); VSAVRKLDFSDTM
Substitution | normalised enrichment score
S10D | 3.37
K6D | 0.167
F9K | 0.502
D11R | 2.88
D8T | 2
D8H | 1.54

Sample 2
Target: Sal-like protein 4, full length isoform B (SALL4, Homo sapiens, UniProt Q9UJQ4-2, residues 1-616)
Method: universal PBM
Molecule type: double-stranded DNA, one strand shown
Sample: in vitro
Concentration: not given
Notes: 8-mer, flanks averaged, mean of replicates
Direction: higher = stronger binding
Residues (chain): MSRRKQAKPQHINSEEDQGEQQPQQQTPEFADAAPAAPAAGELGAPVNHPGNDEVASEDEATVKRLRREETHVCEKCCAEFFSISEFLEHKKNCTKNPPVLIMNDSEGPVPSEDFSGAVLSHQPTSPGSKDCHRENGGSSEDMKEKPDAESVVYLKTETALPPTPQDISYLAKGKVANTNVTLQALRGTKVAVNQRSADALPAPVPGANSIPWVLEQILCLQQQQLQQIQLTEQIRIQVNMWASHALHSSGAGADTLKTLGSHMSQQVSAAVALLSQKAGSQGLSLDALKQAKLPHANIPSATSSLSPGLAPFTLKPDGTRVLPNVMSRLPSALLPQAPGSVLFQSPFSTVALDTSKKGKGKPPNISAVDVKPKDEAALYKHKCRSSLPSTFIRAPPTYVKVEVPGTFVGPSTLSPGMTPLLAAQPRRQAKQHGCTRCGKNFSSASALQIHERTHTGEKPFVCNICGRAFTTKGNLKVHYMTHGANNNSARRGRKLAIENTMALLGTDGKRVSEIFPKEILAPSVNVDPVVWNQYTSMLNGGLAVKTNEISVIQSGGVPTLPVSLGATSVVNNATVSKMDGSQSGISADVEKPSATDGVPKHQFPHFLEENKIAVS
Oligonucleotide | E-score
ACTATAGA | 0.238
ATTCTCGG | 0.0374
CCGTTTAA | 0.045
AATGGGAC | -0.161
GAATGATA | 0.307
AGTTTAAG | 0.103
CAGTCGCA | -0.187
AACCGAAA | 0.122
CGTGAATC | 0.0366
AATGCTCT | 0.0751
GCTATAGA | 0.179

Sample 3
Target: Ras GTPase-activating protein-binding protein 1, C-terminal RGG region (G3BP1, Homo sapiens, UniProt Q13283)
Sequence of UniProt Q13283 (whole entry, looked up): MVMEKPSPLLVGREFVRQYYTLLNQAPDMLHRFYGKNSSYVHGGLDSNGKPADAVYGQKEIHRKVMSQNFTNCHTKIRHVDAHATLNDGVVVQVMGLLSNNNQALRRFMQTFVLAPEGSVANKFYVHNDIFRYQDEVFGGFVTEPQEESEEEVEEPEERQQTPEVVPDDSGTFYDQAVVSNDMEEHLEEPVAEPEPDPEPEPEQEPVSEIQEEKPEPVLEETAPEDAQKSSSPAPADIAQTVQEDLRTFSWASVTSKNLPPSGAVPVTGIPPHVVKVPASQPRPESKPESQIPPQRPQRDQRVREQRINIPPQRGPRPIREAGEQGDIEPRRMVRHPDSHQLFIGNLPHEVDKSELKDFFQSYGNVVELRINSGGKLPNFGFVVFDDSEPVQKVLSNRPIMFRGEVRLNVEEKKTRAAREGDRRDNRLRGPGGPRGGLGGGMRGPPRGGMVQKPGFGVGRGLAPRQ
Method: RNA Bind-n-Seq
Molecule type: RNA
Sample: in vitro
Concentration: 1 µM
Notes: whole 134-nt RNA, ends assumed
Together with: 150 mM KCl
Relative to: input library
Direction: higher = stronger binding
All sequences stand within: GGGAGUUCUACAGUCCGACGAUC … UGGAAUUCUCGGGUGUCAAGG
Oligonucleotide | log2 enrichment
CAAGUCCUGUGCUACACAUCGUAUGUACCGAAUCGGUUUUUGGAGGAAAAAAAGGAAAGUAUUAUGUUACGCCGUUCGGAUCUGCACUUC | -1.53
CCUGUGCUACACAUCGUAUGUACCGAAUCGGGUUUUUUUGGGAAAAAAAGGGAAAAAGGGAAAGUAUUAUGUUACGCCGUUCGGAUCUGC | -2.15
GCAGGAAGUAAAAACAAAUGGAAAUGCUUCGGAUAGUGGCAGGGGUGGGGGUUGCUAAGGAAAGCGUGGGAUGGGAGUGGGUAAAGAGUU | 1.41
UCCUCAAGUCCUGUGCUACACAUCGUAUGUACCGAAUCGGGGAGGAGGGAGGAAAGUAUUAUGUUACGCCGUUCGGAUCUGCACUUCCAG | -0.525
UUCCUCAAGUCCUGUGCUACACAUCGUAUGUACCGAAUCGGUGGAGGUGGAAAGUAUUAUGUUACGCCGUUCGGAUCUGCACUUCCAGCA | -0.98
AAGUCCUGUGCUACACAUCGUAUGUACCGAAUCGGGGAGGGGAAAGGGGUUUGGGGAAAGUAUUAUGUUACGCCGUUCGGAUCUGCACUU | 2.82
ACCAUGCAGGUGGGCAUCUUUGGGAAGUGGGGCAAGGGGGGGAUAGGGAGGGGGGUAACACUUUGGGAACAGGUGGUCCCAGGUCGAAAC | -1.26
CAAGUCCUGUGCUACACAUCGUAUGUACCGAAUCGGGAAAGGGGAAAGGAAAGGGGAAAGUAUUAUGUUACGCCGUUCGGAUCUGCACUU | 0.187
UGGCCCUGGUGGCAUGCGGGGAGGAAGAGGUGGCCUCAUGGAUCGUGGUGGUCCCGGUGGAAUGUUCAGAGGUGGCCGGGGUGGAGACAG | 3.52
UCAAGUCCUGUGCUACACAUCGUAUGUACCGAAUCGGGAAAAAGGGUGGGAGGGAAAGUAUUAUGUUACGCCGUUCGGAUCUGCACUUCC | 1.62
ACCAUGCAGGCGGGCAUCUUUGGGAAGUGGGGCAAGGGGGGGAUAGGGAGGGGGGUAACACUUUGGGAACAGGUGGUCCCAGGUCGUUUC | -1.32

Single results of other studies
Molecule | target | assay | system | conditions | how to read | endpoint | value
PhoQ, residues 284 288 289 292 302 303 SCEHLI | PhoP, residues 12 14 15 18 19 LHHVQ (Escherichia coli, UniProt P23836) | Sort-seq, refers to: YFP reporter | E. coli | PhoQ-PhoP variant library, together with: 10 µM Mg2+ | relative to: high Mg2+ state, higher = stronger signaling | fold induction | 16.5
